Published values pooled from the literature.
Protocols differ between the studies behind these lines. “And” joins repeats or separate records; there may be more than shown. ± gives the spread as reported.
PTPN1: Tyrosine-protein phosphatase non-receptor type 1 (PTPN1, Homo sapiens, UniProt P18031)

Sequences of proteins named here, by UniProt entry; tags and fusion partners are left off. Residues count along the entry.
UniProt P18031, 1-321 limits assumed: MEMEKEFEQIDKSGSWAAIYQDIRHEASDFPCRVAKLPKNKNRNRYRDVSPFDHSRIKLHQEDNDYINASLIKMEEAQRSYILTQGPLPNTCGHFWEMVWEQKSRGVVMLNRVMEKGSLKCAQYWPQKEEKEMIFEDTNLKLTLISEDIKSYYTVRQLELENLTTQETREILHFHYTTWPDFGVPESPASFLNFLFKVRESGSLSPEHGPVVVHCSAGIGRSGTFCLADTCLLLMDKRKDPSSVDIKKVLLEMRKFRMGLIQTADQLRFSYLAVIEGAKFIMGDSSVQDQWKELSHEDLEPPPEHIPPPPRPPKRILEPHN
UniProt Q5JRX3, 29-1037 limits assumed: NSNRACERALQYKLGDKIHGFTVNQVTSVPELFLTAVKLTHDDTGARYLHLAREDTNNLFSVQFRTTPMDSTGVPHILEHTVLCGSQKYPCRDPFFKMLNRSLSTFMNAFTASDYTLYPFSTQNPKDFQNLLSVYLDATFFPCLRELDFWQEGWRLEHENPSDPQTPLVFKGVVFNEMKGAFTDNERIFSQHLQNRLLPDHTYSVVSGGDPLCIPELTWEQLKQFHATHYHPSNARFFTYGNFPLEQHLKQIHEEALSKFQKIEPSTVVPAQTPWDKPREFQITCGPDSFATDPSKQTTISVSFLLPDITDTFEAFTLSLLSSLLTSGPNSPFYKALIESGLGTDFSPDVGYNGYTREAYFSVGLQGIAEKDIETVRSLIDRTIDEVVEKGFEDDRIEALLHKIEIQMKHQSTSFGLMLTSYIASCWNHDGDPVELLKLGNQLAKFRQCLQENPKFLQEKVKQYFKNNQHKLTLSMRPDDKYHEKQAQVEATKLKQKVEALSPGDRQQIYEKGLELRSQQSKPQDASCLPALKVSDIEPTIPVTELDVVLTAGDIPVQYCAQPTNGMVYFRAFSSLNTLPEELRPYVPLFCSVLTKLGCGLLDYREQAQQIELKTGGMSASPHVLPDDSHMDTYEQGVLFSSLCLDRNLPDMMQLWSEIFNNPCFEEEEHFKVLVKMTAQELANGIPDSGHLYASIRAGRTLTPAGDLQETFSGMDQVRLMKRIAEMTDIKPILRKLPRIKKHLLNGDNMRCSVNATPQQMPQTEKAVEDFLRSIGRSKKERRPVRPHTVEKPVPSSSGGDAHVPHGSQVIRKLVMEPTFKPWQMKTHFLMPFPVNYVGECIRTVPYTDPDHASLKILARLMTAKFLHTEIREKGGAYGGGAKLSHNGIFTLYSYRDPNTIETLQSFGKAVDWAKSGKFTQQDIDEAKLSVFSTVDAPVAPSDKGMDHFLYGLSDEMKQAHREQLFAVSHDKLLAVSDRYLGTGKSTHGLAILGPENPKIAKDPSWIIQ
UniProt O60502, whole entry: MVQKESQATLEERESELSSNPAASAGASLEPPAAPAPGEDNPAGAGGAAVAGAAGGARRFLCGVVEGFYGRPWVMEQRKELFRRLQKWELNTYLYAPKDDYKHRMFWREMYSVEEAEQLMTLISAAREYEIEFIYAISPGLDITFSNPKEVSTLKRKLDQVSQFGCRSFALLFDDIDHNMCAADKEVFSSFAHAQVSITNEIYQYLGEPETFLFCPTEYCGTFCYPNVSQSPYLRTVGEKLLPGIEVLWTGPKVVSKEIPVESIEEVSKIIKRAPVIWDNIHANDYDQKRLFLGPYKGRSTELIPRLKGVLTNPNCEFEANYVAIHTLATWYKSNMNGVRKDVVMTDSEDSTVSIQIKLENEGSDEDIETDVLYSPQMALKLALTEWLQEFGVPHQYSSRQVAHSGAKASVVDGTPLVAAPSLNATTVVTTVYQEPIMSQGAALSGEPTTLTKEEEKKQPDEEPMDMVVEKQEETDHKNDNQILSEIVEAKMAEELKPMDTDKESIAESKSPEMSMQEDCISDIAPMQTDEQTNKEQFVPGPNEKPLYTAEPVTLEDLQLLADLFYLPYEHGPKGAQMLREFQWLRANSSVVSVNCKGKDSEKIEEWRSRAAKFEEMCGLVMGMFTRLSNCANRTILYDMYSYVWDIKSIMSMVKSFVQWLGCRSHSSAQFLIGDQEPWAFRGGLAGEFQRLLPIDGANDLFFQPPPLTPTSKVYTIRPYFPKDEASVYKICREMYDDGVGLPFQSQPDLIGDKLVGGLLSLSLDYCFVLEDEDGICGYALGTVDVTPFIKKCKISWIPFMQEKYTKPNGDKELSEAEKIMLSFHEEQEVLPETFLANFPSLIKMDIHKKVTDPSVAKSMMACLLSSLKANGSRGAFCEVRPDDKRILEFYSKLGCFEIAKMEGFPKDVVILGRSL
UniProt P11387, whole entry: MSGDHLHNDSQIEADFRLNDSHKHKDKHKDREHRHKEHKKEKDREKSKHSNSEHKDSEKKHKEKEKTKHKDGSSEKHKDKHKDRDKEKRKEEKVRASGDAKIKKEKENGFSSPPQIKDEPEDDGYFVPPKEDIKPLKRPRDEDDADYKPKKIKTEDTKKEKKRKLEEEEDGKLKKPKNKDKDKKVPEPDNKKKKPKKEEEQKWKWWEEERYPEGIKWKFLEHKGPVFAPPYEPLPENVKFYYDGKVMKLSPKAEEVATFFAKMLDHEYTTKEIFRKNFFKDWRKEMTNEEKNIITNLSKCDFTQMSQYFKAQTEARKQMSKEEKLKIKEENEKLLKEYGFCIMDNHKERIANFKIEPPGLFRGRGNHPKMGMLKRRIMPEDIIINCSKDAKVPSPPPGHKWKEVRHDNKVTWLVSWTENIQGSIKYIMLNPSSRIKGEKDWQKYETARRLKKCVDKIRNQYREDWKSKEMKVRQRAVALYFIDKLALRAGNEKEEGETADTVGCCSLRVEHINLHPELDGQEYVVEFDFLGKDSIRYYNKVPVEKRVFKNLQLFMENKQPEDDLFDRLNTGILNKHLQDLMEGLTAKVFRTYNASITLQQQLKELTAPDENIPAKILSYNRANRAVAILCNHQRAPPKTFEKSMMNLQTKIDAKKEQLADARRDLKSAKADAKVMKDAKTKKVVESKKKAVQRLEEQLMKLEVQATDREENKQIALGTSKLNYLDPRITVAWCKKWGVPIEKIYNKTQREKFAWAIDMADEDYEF
UniProt Q66478, 863-1012 limits assumed: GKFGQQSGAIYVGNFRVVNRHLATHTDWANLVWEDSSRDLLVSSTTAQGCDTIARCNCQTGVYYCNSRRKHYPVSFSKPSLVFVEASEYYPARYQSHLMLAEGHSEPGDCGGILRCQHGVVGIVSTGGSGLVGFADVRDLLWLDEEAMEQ
UniProt P0C7A3, whole entry: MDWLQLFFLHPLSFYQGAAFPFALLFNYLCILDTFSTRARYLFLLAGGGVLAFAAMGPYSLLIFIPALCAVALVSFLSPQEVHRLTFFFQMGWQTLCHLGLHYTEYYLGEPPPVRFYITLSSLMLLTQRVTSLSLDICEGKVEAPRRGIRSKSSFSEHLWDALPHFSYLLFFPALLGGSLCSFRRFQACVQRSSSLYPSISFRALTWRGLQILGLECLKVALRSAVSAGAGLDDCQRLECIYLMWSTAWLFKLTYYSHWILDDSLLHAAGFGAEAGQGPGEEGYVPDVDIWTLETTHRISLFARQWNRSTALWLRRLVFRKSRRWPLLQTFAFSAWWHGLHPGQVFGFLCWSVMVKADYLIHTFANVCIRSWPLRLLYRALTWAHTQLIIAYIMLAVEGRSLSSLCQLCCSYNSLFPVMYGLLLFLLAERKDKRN
UniProt Q9BY41, whole entry: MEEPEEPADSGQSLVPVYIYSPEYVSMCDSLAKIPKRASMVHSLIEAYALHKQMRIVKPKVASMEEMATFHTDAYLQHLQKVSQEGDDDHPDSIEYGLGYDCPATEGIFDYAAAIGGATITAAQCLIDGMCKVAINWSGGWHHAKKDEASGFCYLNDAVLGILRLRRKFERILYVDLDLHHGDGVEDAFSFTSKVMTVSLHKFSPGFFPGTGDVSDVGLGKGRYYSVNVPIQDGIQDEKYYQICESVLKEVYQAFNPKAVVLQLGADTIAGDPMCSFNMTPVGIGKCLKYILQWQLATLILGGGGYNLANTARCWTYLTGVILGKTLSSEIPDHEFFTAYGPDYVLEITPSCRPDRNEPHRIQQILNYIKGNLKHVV
UniProt Q16539, whole entry: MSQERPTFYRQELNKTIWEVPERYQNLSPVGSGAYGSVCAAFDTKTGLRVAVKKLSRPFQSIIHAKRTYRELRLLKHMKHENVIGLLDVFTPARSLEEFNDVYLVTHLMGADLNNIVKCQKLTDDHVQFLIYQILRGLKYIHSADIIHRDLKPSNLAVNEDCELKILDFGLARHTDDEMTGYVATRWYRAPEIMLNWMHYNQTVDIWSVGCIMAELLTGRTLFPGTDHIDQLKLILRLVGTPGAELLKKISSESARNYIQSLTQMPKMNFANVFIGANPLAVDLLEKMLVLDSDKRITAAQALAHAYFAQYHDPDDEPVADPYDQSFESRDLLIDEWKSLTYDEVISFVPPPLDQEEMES

| SMILES | tested on | test | test system | conditions | scale | measurement | result |
| --- | --- | --- | --- | --- | --- | --- | --- |
| CC(C)C[C@H](NC(=O)[C@@H](NC(=O)[C@H](CC(C)C)NC(=O)[C@H](CS)NC(=O)CNS(=O)(=O)c1cccc2c(N(C)C)cccc12)C(C)C)C(=O)O | geranylgeranyltransferase type-I (Rattus norvegicus, UniProt P53610+Q04631) | substrate, fluorescence |  | 30 °C, added: GTP 30 µM and GGPP 10 µM |  | Km | 2.1 ± 0.9 µM |
| CC(C)C[C@H](NC(=O)CNC(=O)CNC(=O)[C@H](Cc1ccc(O)cc1)NC(=O)c1ccccc1N)C(=O)N[C@@H](CCCNC(=N)N)C(=O)N[C@@H](CCCNC(=N)N)C(=O)NCC(=O)N[C@@H](CCC(N)=O)C(=O)NCCNc1ccc([N+](=O)[O-])cc1[N+](=O)[O-] | Presequence protease, mitochondrial (Homo sapiens, UniProt Q5JRX3) | substrate |  | pH 7.5 |  | Km | 0.5 µM |
| CC(=O)N[C@H]1[C@H](OC[C@H](NC(=O)[C@H](Cc2ccc(O)cc2)NC(=O)[C@@H]2CCCN2C(=O)[C@@H](NC(C)=O)C(C)C)C(=O)N[C@@H](CO)C(=O)N[C@@H](C)C(=O)N[C@@H](CCC(N)=O)C(N)=O)O[C@H](CO)[C@@H](O)[C@@H]1O | Protein O-GlcNAcase (OGA, Homo sapiens, UniProt O60502) | substrate |  | pH 7.5, 37 °C, added: 4MU-GlcNAc 200 µM competition |  | Km | 4100 ± 300 µM |
| CC(=O)N[C@@H](C)C(=O)N[C@@H](CO)C(=O)N[C@@H](CO)C(=O)N[C@@H](CC(=O)O)C(=O)N[C@@H](CC(=O)O)C(=O)N[C@@H](Cc1ccc(OP(=O)(O)O)cc1)C(=O)N[C@@H](C)C(=O)N[C@@H](C)C(N)=O | PTPN1 | substrate, continuous UV |  | pH 7.4, multiply phosphorylated peptides apparent |  | Km | 18 ± 1 µM |
| CCOC(=O)c1c(-c2ccc(Cl)cc2Cl)n(-c2nc(-c3ccc(Cl)cc3)c3c(NC(=O)c4ccccc4)nnc-3[nH]2)[nH]c1=O | T47D | SRB |  | 10 µM |  | cell growth | 7.66% |
| CC(=O)N[C@@H](C)C(=O)N[C@@H](C)C(=O)N[C@@H](Cc1ccc(OP(=O)(O)O)cc1)C(=O)N[C@@H](C)C(=O)N[C@@H](C)C(=O)N[C@@H](C)C(=O)N[C@@H](CC(=O)O)C(=O)N[C@@H](CC(=O)O)C(N)=O | PTPN1 | substrate |  | pH 7.4, catalytic domain |  | Km | 3 ± 0.1 µM |
| CC/C=C\C/C=C\CCC/C=C/C=C/C=C\CCCC(=O)O | DNA topoisomerase 1 (TOP1, Homo sapiens, UniProt P11387) | catalytic activity, inhibitor, gel |  | added: 2 units topo I, pBR322 |  | IC50 | 500 ± 100 nM |
| CC[C@H](C)[C@H](NC(=O)[C@H](CCCNC(=N)N)NC(=O)[C@H](CCCCN)NC(=O)[C@H](CCCNC(=N)N)NC(=O)[C@H](C)NC(C)=O)C(=O)N[C@@H](Cc1ccc(OP(=O)(O)O)cc1)C(=O)N[C@@H](C)C(=O)N[C@@H](C)C(N)=O | PTPN1 | substrate |  | pH 7.4, catalytic domain |  | Km | 166 ± 6 µM |
| CC(=O)N[C@@H](C)C(=O)N[C@@H](C)C(=O)N[C@@H](C)C(=O)N[C@@H](C)C(=O)N[C@@H](C)C(=O)N[C@@H](Cc1ccc(OP(=O)(O)O)cc1)C(=O)N[C@@H](CCC(=O)O)C(=O)N[C@@H](CCC(=O)O)C(=O)N[C@H](C(=O)N[C@@H](Cc1c[nH]cn1)C(N)=O)C(C)C | PTPN1 | substrate, continuous UV |  | pH 7.4, multiply phosphorylated peptides apparent |  | Km | 32 ± 7 µM |
| CC[C@H](C)[C@H](NC(=O)[C@H](CCCCN)NC(=O)[C@H](CC(=O)O)NC(=O)[C@H](CCCNC(=N)N)NC(=O)c1ccc(N=Nc2ccc(N(C)C)cc2)cc1)C(=O)NCC(=O)N[C@@H](Cc1ccccc1)C(=O)N[C@@H](CCCNC(=N)N)C(=O)NCC(=O)N[C@@H](CCCCN)C(=O)N[C@@H](Cc1ccccc1)C(=O)NCC(=O)N[C@@H](CCC(N)=O)C(=O)N[C@@H](CC(=O)O)C(=O)N[C@@H](CCC(=O)NCCNc1cccc2c(S(=O)(=O)O)cccc12)C(N)=O | Genome polyprotein, 2A protease (Enterovirus A71, UniProt Q66478) | protease activity, substrate, FRET | enterovirus 71 | pH 7.4, 30 °C |  | Km | 6.92 ± 1.11 µM |
| CC(C)C[C@H](NC(=O)[C@H](Cc1ccccc1)NC(=O)[C@H](CO)NC(=O)[C@H](CO)NC(=O)CN)C(=O)N[C@@H](CO)C(=O)N1CCC[C@H]1C(=O)N[C@@H](CCC(=O)O)C(=O)N[C@@H](Cc1c[nH]cn1)C(=O)N[C@@H](CCC(N)=O)C(=O)NCCCCCC(=O)N[C@@H](CCCCNC(=O)CCCC[C@@H]1SC[C@@H]2NC(=O)N[C@@H]21)C(=O)NCC(=O)O | Membrane-bound ghrelin O-acyltransferase MBOAT4 (Mus musculus, UniProt P0C7A3) | substrate |  | pH 7 |  | Km | 30.4 ± 5.1 µM |
| CC(=O)N[C@@H](CC(=O)O)C(=O)N[C@H](C(=O)N[C@@H](C)C(=O)N[C@@H](CC(=O)O)C(=O)N[C@H](C(=O)N[C@@H](Cc1ccc(OP(=O)(O)O)cc1)C(=O)N[C@@H](C)C(=O)N[C@@H](C)C(N)=O)C(C)C)[C@@H](C)O | PTPN1 | substrate, continuous UV |  | pH 7.4, multiply phosphorylated peptides apparent |  | Km | 8.9 ± 1 µM |
| CC[C@H](C)[C@H](NC(=O)[C@H](Cc1ccc(OP(=O)(O)O)cc1)NC(=O)[C@H](C)NC(=O)[C@H](C)NC(C)=O)C(=O)N[C@@H](CCCNC(=N)N)C(=O)N[C@@H](CCCCN)C(=O)N[C@@H](CCCNC(=N)N)C(=O)N[C@@H](C)C(N)=O | PTPN1 | substrate |  | pH 7.4, catalytic domain |  | Km | 89 ± 2 µM |
| CC(=O)NCCCC[C@H](NC(=O)[C@H](CCCCNC(C)=O)NC(=O)[C@H](Cc1c[nH]cn1)NC(=O)[C@H](CCCNC(=N)N)NC(C)=O)C(=O)Nc1ccc2c(C)cc(=O)oc2c1 | HDAC8 (Homo sapiens, UniProt Q9BY41) | substrate |  | 25 °C |  | Km | 1300 ± 300 µM |
| CCCC[C@H](NC(=O)[C@H](CCC(N)=O)NC(=O)[C@@H](NC(=O)[C@H](CCC(=O)O)NC(=O)[C@H](CC(=O)O)NC(=O)[C@H](Cc1ccc(OP(=O)(O)O)cc1)NC(=O)[C@H](CC(C)C)NC(=O)[C@@H]1CCCN1C(=O)CNC(=O)[C@H](Cc1c[nH]c2ccccc12)NC(=O)[C@H](C)NC(C)=O)C(C)C)C(N)=O | PTPN1 | substrate |  | pH 7.4, catalytic domain |  | Km | 1.8 ± 0.1 µM |
| C=C(C)C(=O)Nc1ccc(-c2c(-c3ccc(Oc4nccc(C)n4)c(F)c3)c3c(N)ncnc3n2C)cc1 | EN | cell growth, CellTiter-Glo |  | 120 h, unit not given | baseline: untreated growth rate, higher = stronger inhibition | area over GR curve | 0.451 |
| N#Cc1c(-c2ccc(Cl)cc2Cl)n(-c2nc(-c3ccc(Cl)cc3)c3c(NC(=O)c4ccccc4)nnc-3[nH]2)[nH]c1=O | T47D | SRB |  | 10 µM |  | cell growth | 24.1% |
| CC(C)C[C@H](NC(=O)[C@H](C)NC(=O)[C@H](CCCNC(=N)N)NC(=O)[C@H](CCCNC(=N)N)NC(=O)[C@H](CCCNC(=N)N)NC(=O)[C@H](C)NC(=O)[C@H](CC(C)C)NC(=O)[C@H](CCCNC(=N)N)NC(=O)[C@H](CO)NC(=O)[C@H](CCCCN)NC(=O)[C@H](CO)NC(=O)Cn1cc(COC(=O)[C@]2(C)C=C(C(=O)OC(C)(C)C)C(=O)CC2)nn1)C(=O)O | MAPK14 (Homo sapiens, UniProt Q16539) | enzyme activity, inhibitor, D-SENSOR kinase |  | 7.407 µM, unit not given | baseline: untreated | remaining activity | 0.0277 and 0.0275 and 0.0371 |
| CC(=O)N[C@@H](C)C(=O)N[C@H](C(=O)N[C@@H](Cc1ccc(OP(=O)(O)O)cc1)C(=O)N[C@@H](C)C(=O)N[C@@H](CC(=O)O)C(=O)N[C@@H](Cc1c[nH]cn1)C(=O)N[C@@H](Cc1ccc(OP(=O)(O)O)cc1)C(=O)N[C@@H](C)C(=O)N[C@@H](C)C(N)=O)C(C)C | PTPN1 | substrate, continuous UV |  | pH 7.4, multiply phosphorylated peptides apparent |  | Km | 3.1 ± 0.6 µM |

Some of these lines once more:
| SMILES | tested on | test | test system | conditions | scale | measurement | result |
| --- | --- | --- | --- | --- | --- | --- | --- |
| CCOC(=O)c1c(-c2ccc(Cl)cc2Cl)n(-c2nc(-c3ccc(Cl)cc3)c3c(NC(=O)c4ccccc4)nnc-3[nH]2)[nH]c1=O | T47D | SRB |  | 10 µM |  | cell growth | 7.66% |
| CC(=O)N[C@@H](C)C(=O)N[C@@H](C)C(=O)N[C@@H](Cc1ccc(OP(=O)(O)O)cc1)C(=O)N[C@@H](C)C(=O)N[C@@H](C)C(=O)N[C@@H](C)C(=O)N[C@@H](CC(=O)O)C(=O)N[C@@H](CC(=O)O)C(N)=O | PTPN1 | substrate |  | pH 7.4, catalytic domain |  | Km | 3 ± 0.1 µM |
